Measured values pooled from the literature.
Every numbered part comes from another study and shows a few of its results, in no order.
Chain of UniProt P49841 (whole entry, looked up): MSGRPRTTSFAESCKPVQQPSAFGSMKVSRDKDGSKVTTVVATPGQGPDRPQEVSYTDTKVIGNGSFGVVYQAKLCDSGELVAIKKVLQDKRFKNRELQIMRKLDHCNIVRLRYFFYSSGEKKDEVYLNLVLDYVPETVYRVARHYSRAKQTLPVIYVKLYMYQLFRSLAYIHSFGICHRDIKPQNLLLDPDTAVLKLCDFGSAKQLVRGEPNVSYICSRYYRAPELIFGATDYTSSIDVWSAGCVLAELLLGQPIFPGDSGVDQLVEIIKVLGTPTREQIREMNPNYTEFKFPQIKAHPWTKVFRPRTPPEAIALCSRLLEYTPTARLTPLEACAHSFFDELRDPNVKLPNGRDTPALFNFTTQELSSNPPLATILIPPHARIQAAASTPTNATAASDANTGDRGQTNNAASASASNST
Chain of UniProt P06239 (whole entry, looked up): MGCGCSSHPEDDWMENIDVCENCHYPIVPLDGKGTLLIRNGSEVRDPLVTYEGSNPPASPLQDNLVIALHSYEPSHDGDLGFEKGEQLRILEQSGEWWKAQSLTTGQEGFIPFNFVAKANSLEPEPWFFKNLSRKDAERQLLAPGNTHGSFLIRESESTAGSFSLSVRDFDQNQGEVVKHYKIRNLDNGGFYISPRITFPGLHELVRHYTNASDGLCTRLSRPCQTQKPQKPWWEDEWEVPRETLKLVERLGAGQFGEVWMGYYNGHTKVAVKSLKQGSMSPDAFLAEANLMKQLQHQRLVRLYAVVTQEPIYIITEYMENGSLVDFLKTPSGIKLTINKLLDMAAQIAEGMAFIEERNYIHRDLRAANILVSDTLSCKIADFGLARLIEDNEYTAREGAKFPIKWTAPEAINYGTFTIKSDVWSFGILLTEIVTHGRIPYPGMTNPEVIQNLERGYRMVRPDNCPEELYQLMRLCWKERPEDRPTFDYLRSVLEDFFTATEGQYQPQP
Chain of UniProt P52333 (whole entry, looked up): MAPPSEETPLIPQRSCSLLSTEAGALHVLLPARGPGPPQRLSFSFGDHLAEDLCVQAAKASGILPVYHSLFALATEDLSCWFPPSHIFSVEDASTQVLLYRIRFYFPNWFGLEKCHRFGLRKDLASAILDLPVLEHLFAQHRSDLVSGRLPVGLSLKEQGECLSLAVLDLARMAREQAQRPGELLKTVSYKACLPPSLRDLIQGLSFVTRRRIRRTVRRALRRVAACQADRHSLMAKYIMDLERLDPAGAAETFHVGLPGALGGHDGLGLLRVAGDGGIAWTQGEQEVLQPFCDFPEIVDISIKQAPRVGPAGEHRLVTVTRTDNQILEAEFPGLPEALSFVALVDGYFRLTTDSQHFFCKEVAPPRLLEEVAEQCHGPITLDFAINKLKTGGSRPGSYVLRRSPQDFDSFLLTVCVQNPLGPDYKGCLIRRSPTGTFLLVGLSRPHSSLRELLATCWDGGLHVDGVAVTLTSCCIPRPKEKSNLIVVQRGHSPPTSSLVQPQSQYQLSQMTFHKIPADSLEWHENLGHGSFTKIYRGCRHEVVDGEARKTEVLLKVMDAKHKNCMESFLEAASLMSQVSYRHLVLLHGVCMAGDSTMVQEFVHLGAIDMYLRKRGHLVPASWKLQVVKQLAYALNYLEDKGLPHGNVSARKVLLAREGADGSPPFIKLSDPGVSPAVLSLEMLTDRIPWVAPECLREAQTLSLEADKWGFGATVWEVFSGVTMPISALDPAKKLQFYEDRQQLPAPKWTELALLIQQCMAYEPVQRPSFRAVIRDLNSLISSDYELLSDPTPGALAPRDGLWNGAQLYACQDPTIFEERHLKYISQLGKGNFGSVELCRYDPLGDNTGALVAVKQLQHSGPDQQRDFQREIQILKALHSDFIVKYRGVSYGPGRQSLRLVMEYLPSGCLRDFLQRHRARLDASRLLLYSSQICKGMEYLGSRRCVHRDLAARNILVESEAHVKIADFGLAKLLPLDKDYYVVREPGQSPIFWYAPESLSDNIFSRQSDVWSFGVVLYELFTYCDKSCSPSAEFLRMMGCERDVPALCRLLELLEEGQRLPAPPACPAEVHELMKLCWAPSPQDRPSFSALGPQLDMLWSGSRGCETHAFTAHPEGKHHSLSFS
Chain of UniProt P36896 (whole entry, looked up): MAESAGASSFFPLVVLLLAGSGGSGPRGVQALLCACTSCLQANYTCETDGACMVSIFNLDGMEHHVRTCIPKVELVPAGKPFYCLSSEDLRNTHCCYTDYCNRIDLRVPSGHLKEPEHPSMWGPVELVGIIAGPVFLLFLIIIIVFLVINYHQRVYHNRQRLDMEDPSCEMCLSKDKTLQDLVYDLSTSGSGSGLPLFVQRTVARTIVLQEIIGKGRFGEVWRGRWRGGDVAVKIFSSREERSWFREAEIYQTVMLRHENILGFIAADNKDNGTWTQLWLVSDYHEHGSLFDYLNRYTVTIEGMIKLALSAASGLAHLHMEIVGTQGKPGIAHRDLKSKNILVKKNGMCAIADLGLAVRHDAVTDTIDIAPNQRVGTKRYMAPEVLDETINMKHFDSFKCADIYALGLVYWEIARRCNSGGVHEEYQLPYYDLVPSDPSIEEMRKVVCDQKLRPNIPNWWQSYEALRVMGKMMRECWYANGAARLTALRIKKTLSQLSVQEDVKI
Chain of UniProt Q02750 (whole entry, looked up): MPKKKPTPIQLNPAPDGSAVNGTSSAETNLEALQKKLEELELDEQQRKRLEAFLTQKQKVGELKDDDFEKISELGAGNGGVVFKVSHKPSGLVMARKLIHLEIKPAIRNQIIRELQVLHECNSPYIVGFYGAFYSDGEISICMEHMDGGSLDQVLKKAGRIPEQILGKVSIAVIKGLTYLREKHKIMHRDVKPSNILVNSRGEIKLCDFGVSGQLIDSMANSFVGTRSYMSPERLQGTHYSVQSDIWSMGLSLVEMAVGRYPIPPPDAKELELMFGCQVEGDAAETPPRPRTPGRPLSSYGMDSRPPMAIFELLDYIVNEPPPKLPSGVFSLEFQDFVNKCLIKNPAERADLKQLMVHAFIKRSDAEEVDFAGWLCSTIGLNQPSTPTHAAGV
Chain of UniProt O94806 (whole entry, looked up): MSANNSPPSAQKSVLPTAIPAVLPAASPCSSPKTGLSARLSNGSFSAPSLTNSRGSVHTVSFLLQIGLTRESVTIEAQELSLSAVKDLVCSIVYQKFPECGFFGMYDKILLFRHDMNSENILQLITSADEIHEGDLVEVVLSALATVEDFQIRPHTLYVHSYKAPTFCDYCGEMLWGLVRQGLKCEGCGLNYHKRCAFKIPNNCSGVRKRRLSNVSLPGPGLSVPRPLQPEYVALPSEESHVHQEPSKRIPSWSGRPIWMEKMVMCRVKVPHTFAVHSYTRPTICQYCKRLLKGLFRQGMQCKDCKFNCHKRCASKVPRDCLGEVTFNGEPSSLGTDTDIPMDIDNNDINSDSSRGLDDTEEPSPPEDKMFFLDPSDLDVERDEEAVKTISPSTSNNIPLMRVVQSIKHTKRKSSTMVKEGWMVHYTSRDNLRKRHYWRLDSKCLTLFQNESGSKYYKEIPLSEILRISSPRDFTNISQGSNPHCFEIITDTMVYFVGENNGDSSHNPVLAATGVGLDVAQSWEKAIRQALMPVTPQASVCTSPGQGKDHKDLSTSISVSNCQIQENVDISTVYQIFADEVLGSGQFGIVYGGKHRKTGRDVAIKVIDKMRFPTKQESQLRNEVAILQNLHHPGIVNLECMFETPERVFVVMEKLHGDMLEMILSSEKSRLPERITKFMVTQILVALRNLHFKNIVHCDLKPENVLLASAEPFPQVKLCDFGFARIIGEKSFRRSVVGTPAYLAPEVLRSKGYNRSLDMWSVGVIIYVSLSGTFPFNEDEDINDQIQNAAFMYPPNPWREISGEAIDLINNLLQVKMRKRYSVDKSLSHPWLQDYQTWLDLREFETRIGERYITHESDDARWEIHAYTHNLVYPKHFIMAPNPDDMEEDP

Sample 1 — SMILES: N#Cc1c(NC(=O)c2cccc3ccccc23)sc2c1CCCC2; effect on: enzyme activity; mode: inhibitor; tested at: 0.5 µM; reference: control; measurement: remaining activity
ULK2 (Homo sapiens, UniProt Q8IYT8): 112%
TEK (Homo sapiens, UniProt Q02763): 104%
TBK1 (Homo sapiens, UniProt Q9UHD2): 94%
MAP3K5 (Homo sapiens, UniProt Q99683): 99%
GRK7 (Homo sapiens, UniProt Q8WTQ7): 116%
LCK (Homo sapiens, UniProt P06239): 102%
FGFR1 (Homo sapiens, UniProt P11362): 105%
FGFR3 (Homo sapiens, UniProt P22607): 101%
NEK6 (Homo sapiens, UniProt Q9HC98): 101%
MST1R (Homo sapiens, UniProt Q04912): 92.5%
CSNK1G2 (Homo sapiens, UniProt P78368): 103%
MAP3K14 (Homo sapiens, UniProt Q99558): 111%
ACVR1B (Homo sapiens, UniProt P36896): 96.5%
CSNK1G3 (Homo sapiens, UniProt Q9Y6M4): 104%
FRK (Homo sapiens, UniProt P42685): 104%
MAPKAPK2 (Homo sapiens, UniProt P49137): 103%
MAP2K2 (Homo sapiens, UniProt P36507): 106%
TAOK2 (Homo sapiens, UniProt Q9UL54): 99.8%
MERTK (Homo sapiens, UniProt Q12866): 97.9%
GSK3B (Homo sapiens, UniProt P49841): 97.5%
JAK3 (Homo sapiens, UniProt P52333): 101%
MAPK3 (Homo sapiens, UniProt P27361): 97.1%
ARAF (Homo sapiens, UniProt P10398): 104%
EPHA3 (Homo sapiens, UniProt P29320): 103%

Sample 2 — SMILES: C=CCc1ccc(O)c(-c2cc(CC=C)ccc2O)c1; measurement: normalized current
ANO1 del476-501/K629A: Anoctamin-1 (ANO1, Homo sapiens, UniProt Q5XXA6, del476-501/K629A)
Chain of UniProt Q5XXA6 (whole entry, unmodified, looked up): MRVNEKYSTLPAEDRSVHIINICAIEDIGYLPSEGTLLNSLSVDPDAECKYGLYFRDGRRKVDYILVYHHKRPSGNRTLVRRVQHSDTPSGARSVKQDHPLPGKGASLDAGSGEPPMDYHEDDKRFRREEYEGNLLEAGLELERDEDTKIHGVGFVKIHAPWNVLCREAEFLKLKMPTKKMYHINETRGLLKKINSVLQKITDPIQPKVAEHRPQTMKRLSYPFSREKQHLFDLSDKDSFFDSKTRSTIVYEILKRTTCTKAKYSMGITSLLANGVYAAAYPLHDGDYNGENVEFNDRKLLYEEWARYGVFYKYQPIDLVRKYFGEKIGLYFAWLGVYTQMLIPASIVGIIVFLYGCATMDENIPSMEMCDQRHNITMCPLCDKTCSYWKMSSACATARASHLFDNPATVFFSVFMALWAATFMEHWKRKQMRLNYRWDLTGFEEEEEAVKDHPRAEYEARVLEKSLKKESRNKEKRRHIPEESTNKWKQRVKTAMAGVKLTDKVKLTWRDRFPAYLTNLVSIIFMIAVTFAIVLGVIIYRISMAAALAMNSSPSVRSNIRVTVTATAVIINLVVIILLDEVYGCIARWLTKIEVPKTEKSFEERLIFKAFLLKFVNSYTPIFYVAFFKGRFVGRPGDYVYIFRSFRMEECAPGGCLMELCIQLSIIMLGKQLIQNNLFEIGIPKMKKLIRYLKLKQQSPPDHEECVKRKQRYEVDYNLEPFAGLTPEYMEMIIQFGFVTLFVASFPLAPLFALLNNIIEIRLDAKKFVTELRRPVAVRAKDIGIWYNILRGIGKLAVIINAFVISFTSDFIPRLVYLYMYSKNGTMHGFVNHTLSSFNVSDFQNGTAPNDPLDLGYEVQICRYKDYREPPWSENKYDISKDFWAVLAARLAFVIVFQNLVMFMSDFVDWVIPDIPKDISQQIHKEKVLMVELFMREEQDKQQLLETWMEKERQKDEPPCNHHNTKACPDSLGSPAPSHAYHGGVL
ANO1 del476-501/E659A/K629A: Anoctamin-1 (ANO1, Homo sapiens, UniProt Q5XXA6, del476-501/E659A/K629A)
ANO1 del476-501/E649A: Anoctamin-1 (ANO1, Homo sapiens, UniProt Q5XXA6, del476-501/E649A)
ANO1: Anoctamin-1 (ANO1, Homo sapiens, UniProt Q5XXA6)
ANO1 del476-501/K629A; chloride current, inhibitor, inside-out patch clamp; 30 µM, K603A mutant at -80 mV: -0.472
ANO1 del476-501/K629A; chloride current, inside-out patch clamp; 30 µM, membrane voltage -40 mV: -0.241
ANO1 del476-501/E659A/K629A; chloride current, inside-out patch clamp; 30 µM, membrane voltage 40 mV: 0.284
ANO1 del476-501/E659A/K629A; chloride current, inside-out patch clamp; 30 µM, membrane voltage 0 mV: 0.0019
ANO1 del476-501/E649A; ion current, inside-out patch clamp; 30 µM, E623A mutant at 60 mV: 0.416
ANO1; chloride current, inside-out patch clamp; 30 µM, membrane voltage 0 mV: -0.0005
ANO1 del476-501/E649A; chloride current, inhibitor, whole-cell voltage clamp; 10 µM, E623A mutant: 0.93
Anoctamin-1 (ANO1, Homo sapiens, UniProt Q5XXA6, del476-501/E649A/R541A); chloride current, inhibitor, inside-out patch clamp; 30 µM, R515A/E623A mutant at -100 mV: -0.44
ANO1 del476-501/E649A; chloride current, inhibitor, whole-cell voltage clamp; 30 µM, E623A mutant: 0.9
TMEM16A (human) K603A/E623A; chloride current, inside-out patch clamp; 30 µM, membrane voltage 0 mV: -0.0005
ANO1 del476-501/K629A; chloride current, inside-out patch clamp; 30 µM, membrane voltage 120 mV: 1
ANO1 del476-501/E649A; ion current, inside-out patch clamp; 30 µM, E623A mutant at 40 mV: 0.266
ANO1 del476-501/E659A/K629A; chloride current, inside-out patch clamp; 30 µM, membrane voltage -60 mV: -0.383
ANO1; chloride current, inside-out patch clamp; 30 µM, membrane voltage 120 mV: 1

Sample 3 — species: human; sample: microsomes or S9; tested at: 2 µM; time: 0.5 h; measurement: remaining compound
O=C(CC1NCCNC1=O)OCCc1ccccc1 (stereo not drawn): 69.7%
COc1ccc2c(/C=C3/C(=O)c4ccccc4S(=O)(=O)N3C)c[nH]c2c1: 40.1%
CCOC(=O)C1C2CN(c3ccc(C(=O)NCCNC(=O)N4CCN(C)CC4)cn3)CC21 (stereo not drawn): > 99%
O=C(O)CCc1ccc(N2Cc3ccc(NC(=O)c4ccccc4)cc3C2=O)cc1: 88.5%
COCCNC(=O)C(=O)N1CCC(OC(=O)c2ccc(Oc3ccccc3)cc2)C(N2CCN(c3ccc(F)cc3)CC2)C1 (stereo not drawn): 58.2%
COc1cc(OC)c2[nH]c(C(=O)OCc3ncc(Cl)n3C)cc2c1: 2.63%
NC(=O)c1c(-c2ccc(Cl)cc2Cl)csc1NC(=O)CC1(CC(=O)O)CCCC1: 57.3%
Cc1ncc(S(=O)(=O)NCCc2nccnc2C)s1: > 100%
CCCCC/N=c1\n(C)c(=O)nc2sccn12: 37.8%

Sample 4 — tested at: 1 µM; measurement: remaining binding
SMILES: CCOCCn1cc(C(=O)Nc2ccc(-n3nc(-c4cccnc4)cc3C(F)(F)F)cn2)ccc1=O
SIK2 (Homo sapiens, UniProt Q9H0K1); cell-free assay, competition with immobilised ligand: 91%
AKT2 (Homo sapiens, UniProt P31751); cell-free assay, competition with immobilised ligand: 100%
MAP2K1 (Homo sapiens, UniProt Q02750); cell-free assay, competition with immobilised ligand: 86%
CDK19 (Homo sapiens, UniProt Q9BWU1); competition binding: 95%
MKNK2 (Homo sapiens, UniProt Q9HBH9); cell-free assay, competition with immobilised ligand: 100%
SRC (Homo sapiens, UniProt P12931); cell-free assay, competition with immobilised ligand: 90%
CHUK (Homo sapiens, UniProt O15111); cell-free assay, competition with immobilised ligand: 100%
DYRK1B (Homo sapiens, UniProt Q9Y463); cell-free assay, competition with immobilised ligand: 39%
MAP3K4 (Homo sapiens, UniProt Q9Y6R4); cell-free assay, competition with immobilised ligand: 59%
Aurora kinase C (AURKC, Homo sapiens, UniProt Q9UQB9); cell-free assay, competition with immobilised ligand: 88%
STK32C (Homo sapiens, UniProt Q86UX6); cell-free assay, competition with immobilised ligand: 100%
MET (Homo sapiens, UniProt P08581, M1250T); cell-free assay, competition with immobilised ligand: 96%
PIK3CA (Homo sapiens, UniProt P42336, Q546K); cell-free assay, competition with immobilised ligand: 95%
PRKD3 (Homo sapiens, UniProt O94806); cell-free assay, competition with immobilised ligand: 81%
LIM domain kinase 2 (LIMK2, Homo sapiens, UniProt P53671); cell-free assay, competition with immobilised ligand: 100%
MELK (Homo sapiens, UniProt Q14680); cell-free assay, competition with immobilised ligand: 93%
MET (Homo sapiens, UniProt P08581, Y1235D); cell-free assay, competition with immobilised ligand: 100%
CDK17 (Homo sapiens, UniProt Q00537); cell-free assay, competition with immobilised ligand: 96%
STK16 (Homo sapiens, UniProt O75716); cell-free assay, competition with immobilised ligand: 92%

For quick reference, copied from above (sample 4):
MELK (Homo sapiens, UniProt Q14680); cell-free assay, competition with immobilised ligand: 93%
CDK17 (Homo sapiens, UniProt Q00537); cell-free assay, competition with immobilised ligand: 96%
STK32C (Homo sapiens, UniProt Q86UX6); cell-free assay, competition with immobilised ligand: 100%
DYRK1B (Homo sapiens, UniProt Q9Y463); cell-free assay, competition with immobilised ligand: 39%
MET (Homo sapiens, UniProt P08581, M1250T); cell-free assay, competition with immobilised ligand: 96%
LIM domain kinase 2 (LIMK2, Homo sapiens, UniProt P53671); cell-free assay, competition with immobilised ligand: 100%
CHUK (Homo sapiens, UniProt O15111); cell-free assay, competition with immobilised ligand: 100%
AKT2 (Homo sapiens, UniProt P31751); cell-free assay, competition with immobilised ligand: 100%
STK16 (Homo sapiens, UniProt O75716); cell-free assay, competition with immobilised ligand: 92%
Aurora kinase C (AURKC, Homo sapiens, UniProt Q9UQB9); cell-free assay, competition with immobilised ligand: 88%
PRKD3 (Homo sapiens, UniProt O94806); cell-free assay, competition with immobilised ligand: 81%
